Experimental data gathered from unrelated publications.
Each line is one published result; not all experiments were run side by side. Numbers after ± are the reported error.

| SMILES | assay | system | setting | tissue uptake |
| --- | --- | --- | --- | --- |
| CC[C@H](C)[C@H](NC(=O)[C@H](CCCCN)NC(=O)CNC(=O)[C@H](CC(C)C)NC(=O)[C@H](Cc1ccccc1)NC(=O)[C@H](CCCCN)NC(=O)[C@H](CO)NC(=O)[C@H](Cc1ccccc1)NC(=O)[C@H](Cc1c[nH]c2ccccc12)NC(=O)[C@H](CCC(N)=O)NC(=O)[C@@H](NC(=O)[C@H](Cc1ccccc1)NC(=O)CCCCCNC(=O)CN1CCN(CC(=O)O)CCN(CC(=O)O)CCN(CC(=O)O)CC1)C(C)C)C(=O)N[C@@H](CCC(=O)O)C(=O)N1CCC[C@H]1C(=O)N[C@H](CC(=O)O)C(=O)N[C@H](C(=O)N[C@@H](CO)C(=O)N[C@@H](CCC(N)=O)C(=O)N[C@H](C(=O)N[C@@H](CCC(N)=O)C(=O)N[C@@H](CC(=O)O)C(=O)N1CCC[C@H]1C(=O)N[C@@H](CC(N)=O)C(=O)N[C@@H](CC(=O)O)C(=O)N[C@@H](CCC(N)=O)C(=O)N[C@@H](Cc1ccc(O)cc1)C(=O)N[C@@H](CCC(=O)O)C(=O)N1CCC[C@H]1C(=O)N[C@@H](Cc1ccccc1)C(=O)O)C(C)C)C(C)C [copper-64 labelled] | – | female mice, EMT6 tumour-bearing, muscle | 2 h, uncleavable control tracer, checkpoint inhibitor-treated | 0.32 ± 0.04 %ID/g |
| O=C([O-])CNC(=O)CN1CCN(CC(=O)NCC(=O)[O-])CCN(CC(=O)NCC(=O)[O-])CCN(CC(=O)NCC(=O)[O-])CC1.[177Lu+3] | – | Sprague-Dawley rat, lung | intravenous (tail vein), dose not given, 2 h | 0.021 ± 0.002 % injected dose/g |
| CC[C@H](C)[C@H](NC(=O)[C@@H](Cc1c[nH]c2ccccc12)NC(=O)[C@@H]1CCCN1C(=O)[C@H](CCCCN)NC(=O)[C@H](CCCCN)NC(=O)CCNC(=O)CCNC(=O)CN1CCN(CC(=O)O)CCN(CC(=O)O)CCN(CC(=O)O)CC1)C(=O)N[C@@H](C[Si](C)(C)C)C(=O)O [gallium-68 labelled] | – | nude mouse HT-29 xenograft, heart | 90 min | 0.3 ± 0.28 %ID/g |
| CCCC[C@H]1C(=O)N(C)[C@@H](CCCC)C(=O)N[C@@H](CCCNC(=O)CN2CCN(CC(=O)O)CCN(CC(=O)O)CCN(CC(=O)O)CC2)C(=O)N[C@H](C(=O)NCC(N)=O)CSCC(=O)N[C@@H](Cc2ccc(O)cc2)C(=O)N(C)[C@@H](C)C(=O)N[C@@H](CC(N)=O)C(=O)N2CCC[C@H]2C(=O)N[C@@H](Cc2c[nH]cn2)C(=O)N[C@@H](CC(C)C)C(=O)N(C)CC(=O)N[C@@H](Cc2c[nH]c3ccccc23)C(=O)N[C@@H](CO)C(=O)N[C@@H](Cc2c[nH]c3ccccc23)C(=O)N1C [gallium-68 labelled] | – | NOD/SCID mice with CHO-hPD-L1 xenograft, lung | 30 min post injection | 6.85 ± 0.74 %ID/g |
| CC[C@H](C)[C@H](NC(=O)[C@H](CCCNC(=N)N)NC(=O)[C@H](CCCCN)NC(=O)[C@H](Cc1ccc(O)cc1)NC(=O)[C@H](CC(=O)O)NC(=O)[C@H](C)NC(=O)CNC(=O)CCOCCOCCOCCNC(=O)CN1CCN(CC(=O)O)CCN(CC(=O)O)CCN(CC(=O)O)CC1)C(=O)N[C@H](C(=O)N[C@H](C(=O)N[C@@H](CCCCN)C(=O)N[C@H](C(=O)N[C@@H](CC(N)=O)C(N)=O)C(C)C)C(C)C)[C@@H](C)O [copper-64 labelled] | ex vivo gamma counting | C57BL/6J male mice, B16-F10 tumour, spleen | intravenous, 1.85 MBq, 20 min | 0.718 ± 0.02 %ID/g |
| C[C@H](O)[C@@H](NC(=O)[C@H]1CCCN1C(=O)[C@@H](CCCCN)NC(=O)[C@@H](CO)NC(=O)[C@@H](Cc1ccc(O)cc1)NC(=O)[C@@H](CC(N)=O)NC(=O)CCOCCOCCOCCNC(=O)CN1CCN(CC(=O)O)CCN(CC(=O)O)CCN(CC(=O)O)CC1)C(=O)N[C@H](CC(=O)O)C(=O)N[C@H](CCCNC(=N)N)C(=O)N[C@H](CCC(N)=O)C(=O)N[C@H](Cc1ccc(O)cc1)C(=O)N[C@H](Cc1c[nH]cn1)C(=O)N[C@H](Cc1ccccc1)C(N)=O [copper-64 labelled] | – | C57BL/6J mice, muscle | intravenous, 1.85 MBq, 1.333 h, radiolabelled | 0.15 ± 0.11 %ID/g |
| CC(C)C[C@@H](NC(=O)[C@@H](CCCNC(=N)N)NC(=O)[C@@H](Cc1c[nH]cn1)NC(=O)[C@@H](Cc1c[nH]c2ccccc12)NC(=O)[C@@H](Cc1c[nH]cn1)NC(=O)[C@@H](Cc1ccccc1)NC(=O)[C@H](NC(=O)[C@@H](Cc1ccc(O)cc1)NC(=O)CNC(=O)CNC(=O)CCOCCOCCOCCNC(=O)CN1CCN(CC(=O)O)CCN(CC(=O)O)CC1)[C@H](C)O)C(=O)N[C@H](CC(N)=O)C(=O)N1CCC[C@@H]1C(=O)O [gallium-68 labelled] | – | C57BL/6 mice, male, tumor | intravenous, 1.85 MBq, 60 min, with: blocking antibody | 4.56 ± 1.18 %ID/g |
| CCOP(=O)([O-])CNC(=O)CN1CCN(CC(=O)NCP(=O)([O-])OCC)CCN(CC(=O)NCP(=O)([O-])OCC)CCN(CC(=O)NCP(=O)([O-])OCC)CC1.[177Lu+3] | – | Sprague-Dawley rat, muscle | intravenous (tail vein), dose not given, 2 h | 0.007 ± 0.003 % injected dose/g |
| CSCC[C@H](NC(=O)CNC(=O)[C@H](CCCCN)NC(=O)[C@H](CC(C)C)NC(=O)[C@@H]1CCCN1C(=O)[C@H](CO)NC(=O)[C@H](Cc1c[nH]cn1)NC(=O)[C@H](Cc1c[nH]c2ccccc12)NC(=O)[C@H](CCCNC(=N)N)NC(=O)[C@H](CC(C)C)NC(=O)[C@H](CCCNC(=N)N)NC(=O)[C@H](Cc1c[nH]c2ccccc12)NC(=O)[C@H](CS)NC(=O)CCCCCNC(=O)CN1CCN(CC(=O)O)CCN(CC(=O)O)CCN(CC(=O)O)CC1)C(=O)O [copper-64 labelled] | ex vivo biodistribution | male C57BL/6J mice, testis | intravenous, 1.85 MBq, 0.5 h, B16-F10 tumour-bearing | 1.33 %ID/g |
| CN1Cc2cc(Cl)ccc2-n2c(nnc2C2CCN(c3cccc([18F])n3)CC2)C1 | – | C57BL/6 mouse male, blood | intravenous, 3.7 MBq, 60 min | 2.42 ± 0.43 %ID/g |

Excerpt of the above:
| SMILES | assay | system | setting | tissue uptake |
| --- | --- | --- | --- | --- |
| CCOP(=O)([O-])CNC(=O)CN1CCN(CC(=O)NCP(=O)([O-])OCC)CCN(CC(=O)NCP(=O)([O-])OCC)CCN(CC(=O)NCP(=O)([O-])OCC)CC1.[177Lu+3] | – | Sprague-Dawley rat, muscle | intravenous (tail vein), dose not given, 2 h | 0.007 ± 0.003 % injected dose/g |
